Measurements from different studies.
Lines come from different studies, so protocols differ.

`Cc1ncsc1-c1ccc(C(C)NC(=O)C2CC(O)CN2C(=O)C(NC(=O)CCCCCCCCCCN2CCCC(Nc3ncc(Cl)c(Nc4ccccc4S(=O)(=O)C(C)C)n3)C2)C(C)(C)C)cc1` (centres unmarked): “log2 fold change” -1.08 (22Rv1; RNA-seq, refers to: XYLT2 mRNA; concentration not given; relative to: DMSO).
Under “log2 fold change”, `CN1CCCNC(=O)c2cccc(c2)C(=O)NCCCN(C)CCCNc2cccc3c2C(=O)c2cccc(c2C3=O)NCCC1` is recorded as 7.27 (SAS; RNA-Seq, refers to: GPR19 mRNA; 1 µM, 6 h; relative to: untreated cells).
For `Cn1ncc2cc(-c3cncc(Cl)c3N3CCC4(CCNC4=O)CC3)ccc21`, “log2 fold change” read -1.26 (LS174T; gene expression, microarray, refers to: VASN mRNA; concentration not given, 4 h; relative to: untreated cells).
With `CCN(C(=O)c1cc(F)ccc1Oc1nncnc1N1CCC2(C1)CN([C@H](CCCN(C)CCOC)C(C)C)C2)C(C)C` the GI50 was over 10000 nM (IGROV-1; cell growth or viability; 72 h).
With `CNS(=O)(=O)Nc1nccc(Cc2c(C)c3ccc(Oc4ncccc4F)cc3oc2=O)c1F` the IC50 was over 1000 nM (H4; cell viability, CellTiter-Glo; 7 days).
`CC(C)c1ccc(N(C)c2ccc3c(c2)OCC[C@H]3CNc2cnccc2C(=O)O)cc1` has an IC50 of 1.31 nM (NCI-H209; cell viability, CellTiter-Glo; 7 days).
For `CCN(CC)CC(=O)Nc1cccc(-n2cc(-c3ccc4ccc(-c5cn(-c6cccc(NC(=O)CN(CC)CC)c6)nn5)cc4c3)nn2)c1`, the fold regulation was -1.15 (RCC4; PCR array, refers to: PDGFA; 5 x IC50, 4 h, normoxia; relative to: untreated).
For `COC(=O)c1cc(NC2=NC(=O)C(=Cc3ccc(N(C)C)cc3)S2)ccc1OC(C)=O`, the metabolite level was -0.17 fold change (MCF7; GC-MS, refers to: Lactic acid; 1 µM; relative to: DMSO).

A few entries again:
Under “log2 fold change”, `CN1CCCNC(=O)c2cccc(c2)C(=O)NCCCN(C)CCCNc2cccc3c2C(=O)c2cccc(c2C3=O)NCCC1` is recorded as 7.27 (SAS; RNA-Seq, refers to: GPR19 mRNA; 1 µM, 6 h; relative to: untreated cells).
